Results of several laboratories.
Numbered parts are unrelated; each lists some results of a single study. Substitutions count along the parent as printed.

Set 1 — method: protein-binding microarray; molecule type: double-stranded DNA, one strand shown; matrix: in vitro; concentration: 2200 nM top; setting: 60-bp whole probe; with: salmon DNA 0.4 mg/ml; baseline: random background probes; reading: higher = stronger binding; measurement: fitted relative affinity; all sequences stand within: GCCTAGCAC … GTCTTGATTCGCTTGACGCTGCTG
Target: Interferon regulatory factor 7, full length, phosphomimetic (IRF7, Homo sapiens, UniProt Q92985, residues 1-503, S471D/S472D/S475D/S476D/S477D/S483D/S484D/S487D)
Sequence of UniProt Q92985 (whole entry, unmodified, looked up): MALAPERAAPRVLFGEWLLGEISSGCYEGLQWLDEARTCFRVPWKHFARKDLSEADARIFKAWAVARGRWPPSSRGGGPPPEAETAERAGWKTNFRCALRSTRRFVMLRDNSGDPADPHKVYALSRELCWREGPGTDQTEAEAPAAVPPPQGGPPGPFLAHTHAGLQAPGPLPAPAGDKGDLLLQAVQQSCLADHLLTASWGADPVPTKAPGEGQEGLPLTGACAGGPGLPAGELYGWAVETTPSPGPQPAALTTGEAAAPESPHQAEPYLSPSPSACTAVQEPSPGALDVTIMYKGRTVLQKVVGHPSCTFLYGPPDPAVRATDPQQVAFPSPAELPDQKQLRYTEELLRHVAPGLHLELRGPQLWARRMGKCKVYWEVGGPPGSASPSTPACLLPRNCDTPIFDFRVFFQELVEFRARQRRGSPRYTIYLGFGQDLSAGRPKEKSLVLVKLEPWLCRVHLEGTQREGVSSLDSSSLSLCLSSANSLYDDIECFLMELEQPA
GACAGTTTCGGTTTCGGGACGTGCTAG: 17.3 z-score
TTAGATCTCAGTCACGATTAGTGCTAG: -0.163 z-score
TCATATACCCATGTAGAACTGTGCTAG: 0.986 z-score
GACGGACTAGGGTATCGGGACGTGCTA: -0.903 z-score
GACGGTTTCGGTTTCGGGGCGTGCTAG: 14.9 z-score
TCAATGATTTTTTTCATACTGTGCTAG: 0.418 z-score
TACGATATCGGGTATCGAGACGTGCTA: 0.323 z-score
TCATTTTCACTTTTCCTACTGTGCTAG: 9.07 z-score
TTAGGACTGGGTTTAGGTTAGTGCTAG: -0.2 z-score
ACCACTTTTATTTTCAGTATGTGCTAG: 3.65 z-score
TTAGATTTCAGACTGGAATAGTGCTAG: -0.228 z-score
CTCTTGATCCCGAACTGGCCGTGCTAG: 0.355 z-score
GACGGTATCCTTCTTCTGACGTGCTAG: 1.26 z-score
TCATGGTTCCCATTCCAACTGTGCTAG: 1.85 z-score
TTAGGTTTCATACTGCTTTAGTGCTAG: 1.79 z-score
GACGATATAGGGTATCGAGACGTGCTA: -0.199 z-score
GACGGACTGCTTCTCCTGGCGTGCTAG: 0.296 z-score

Set 2 — method: DHFR PCA, deep sequencing; matrix: yeast; with: (+)-ABA 0.032 µM; baseline: wild-type fitted maximum; reading: higher = stronger binding; measurement: relative binding score
Target: ABI1, truncated, D143A, DHFR fusion (Arabidopsis thaliana)
Setting: methotrexate growth selection, single substitutions
Parent: PYL1, truncated, DHFR fusion (Arabidopsis thaliana); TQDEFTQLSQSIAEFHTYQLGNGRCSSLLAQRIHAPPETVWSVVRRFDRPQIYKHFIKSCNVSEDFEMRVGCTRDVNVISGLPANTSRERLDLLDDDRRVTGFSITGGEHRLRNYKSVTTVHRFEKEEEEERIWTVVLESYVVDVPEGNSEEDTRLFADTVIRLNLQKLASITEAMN
I162T: 8.66%
T135C: 8.23%
I52L: 41.1%
S140G: 6.58%
L82R: 5.88%
R74K: 2.02%
N177M: 29.5%
E4W: 18.7%
S11W: 15.2%
L156A: 8.87%
E131F: 16.4%
G21D: 23.7%
Q2D: 30.2%
E139K: 5.21%
E38W: 4.78%
S104P: -3.81%
T154I: 16.8%

Set 3 — target: CCNE2, cyclin fold, Cln2 fusion (human); method: yeast growth competition, sequencing; matrix: yeast; setting: weak parent motif; baseline: not given; reading: higher = stronger binding; measurement: normalised enrichment score
Parent: MICAL3 docking peptide (human); LQLRRQLSFSEDS
S10C: 0.358
Q2D: 0.0757
D12G: 0.356
F9C: 0.0983
Q6N: 0.349
L7M: 0.136
L7R: 0.0139
R5S: 0.053
R5M: 0.319
D12C: 0.789
S10L: 0.719
R5N: 0.596
Q2K: 0.379
D12L: 0.825
S8A: 0.204
S10R: 0.328
S10I: 0.406
F9Q: 0.429
R5C: 0.223
F9E: 0.308
L3K: 0.0398
L3E: 0.0784
L7C: -0.0889
Q6F: -0.114
L3W: 0.69

Set 4 — method: aptamer microarray, sandwich; molecule type: DNA with 2'F-ANA; matrix: in vitro; concentration: 200 nM; with: Cy3 exosite-II aptamer, 400 nM; reading: higher = stronger binding; measurement: mean fluorescence intensity; oligonucleotide: GGTTGGTGTGGTTGG
Target: Prothrombin, mature alpha-thrombin (F2, Homo sapiens, UniProt P00734)
Setting: whole 15-mer aptamer, many near background
2'F-ANA at 4 7 8 10: 109 a.u.
2'F-ANA at 1 3 7 8 12 14 15: 171 a.u.
2'F-ANA at 1 2 4 5 8 9 10 11 13: 47.2 a.u.
2'F-ANA at 2 3 5 7 9 10 11 12 13 14: 81 a.u.
2'F-ANA at 1 3 6 7 11 12 13: 353 a.u.
2'F-ANA at 1 2 3 8: 408 a.u.
2'F-ANA at 1 3 4 5 7 10 11 13: 49.3 a.u.
2'F-ANA at 2 7 10 11 12 14 15: 87.4 a.u.
2'F-ANA at 2 4 5 6 7 9 10 11 12 13: 69.4 a.u.
2'F-ANA at 1 5 6 7 11 14: 54.7 a.u.
2'F-ANA at 2 3 4 5 10 13 14 15: 45 a.u.
2'F-ANA at 2 3 5 6 7 8 9 10 11 12 15: 61.6 a.u.
2'F-ANA at 1 2 7 9 10 11: 50.8 a.u.
2'F-ANA at 1 3 4 6 8 10: 70.7 a.u.
2'F-ANA at 3 4 5 11 14 15: 53.5 a.u.
2'F-ANA at 2 6 7 10 13 15: 105 a.u.
2'F-ANA at 3 6 8 10 11 12 14 15: 323 a.u.
2'F-ANA at 1 3 5 7 10 11 12 13 14 15: 51.5 a.u.
2'F-ANA at 1 2 4 6 9 13 14: 49 a.u.
2'F-ANA at 2 3 5 7 8 10 11 12 15: 59.3 a.u.
2'F-ANA at 2 5 6 7 9 10 14: 49.5 a.u.
2'F-ANA at 2 4 6 7 8 9 10 11 13 14 15: 112 a.u.
2'F-ANA at 2 3 6 9 11 13: 516 a.u.
2'F-ANA at 1 3 5 7 8 9 10 12 13 15: 57.7 a.u.
2'F-ANA at 1 2 3 6 8 9 13: 154 a.u.

Some of these lines once more (set 4):
2'F-ANA at 1 2 3 8: 408 a.u.
2'F-ANA at 1 3 4 6 8 10: 70.7 a.u.
2'F-ANA at 4 7 8 10: 109 a.u.
2'F-ANA at 2 3 4 5 10 13 14 15: 45 a.u.
2'F-ANA at 2 3 5 7 8 10 11 12 15: 59.3 a.u.
2'F-ANA at 2 7 10 11 12 14 15: 87.4 a.u.
2'F-ANA at 1 2 4 6 9 13 14: 49 a.u.
2'F-ANA at 2 5 6 7 9 10 14: 49.5 a.u.
2'F-ANA at 1 2 3 6 8 9 13: 154 a.u.
2'F-ANA at 1 3 7 8 12 14 15: 171 a.u.
2'F-ANA at 2 4 5 6 7 9 10 11 12 13: 69.4 a.u.
2'F-ANA at 1 3 6 7 11 12 13: 353 a.u.
2'F-ANA at 2 6 7 10 13 15: 105 a.u.
2'F-ANA at 1 2 4 5 8 9 10 11 13: 47.2 a.u.
